{"data": "Measurements gathered from unrelated publications", "note": "A part holds a random share of what one study measured. Values joined by “and” are separate records of one study, mostly repeats; a detail may differ. pEC50: −log10 of the molar value."}
{"data": "Block 1", "organism": "Zea mays", "observed": "fresh weight", "route": "soil surface spray", "dose": "150 g ai/ha", "time": "21 days", "notes": "pre-emergence crop safety"}
{"SMILES": "C=CCN1C(=O)C(O)(C(=O)O)Oc2cc(F)ccc21 (centres unmarked)", "inhibition": "21.2% and 25.4% and 19.4%"}
{"SMILES": "C#CCN1C(=O)C(O)(C(=O)O)Oc2cc(F)ccc21 (centres unmarked)", "inhibition": "6.4% and 5.5% and 5.8%"}
{"SMILES": "CCCN1C(=O)C(O)(C(=O)O)Oc2cc(F)ccc21 (centres unmarked)", "inhibition": "8.1% and 7.5% and 9.3%"}
{"data": "Block 2", "target": "Delta-type opioid receptor, with Gi1 (OPRD1, Homo sapiens, UniProt P41143)", "action": "agonist", "UniProt P41143, sequence (whole entry, looked up)": "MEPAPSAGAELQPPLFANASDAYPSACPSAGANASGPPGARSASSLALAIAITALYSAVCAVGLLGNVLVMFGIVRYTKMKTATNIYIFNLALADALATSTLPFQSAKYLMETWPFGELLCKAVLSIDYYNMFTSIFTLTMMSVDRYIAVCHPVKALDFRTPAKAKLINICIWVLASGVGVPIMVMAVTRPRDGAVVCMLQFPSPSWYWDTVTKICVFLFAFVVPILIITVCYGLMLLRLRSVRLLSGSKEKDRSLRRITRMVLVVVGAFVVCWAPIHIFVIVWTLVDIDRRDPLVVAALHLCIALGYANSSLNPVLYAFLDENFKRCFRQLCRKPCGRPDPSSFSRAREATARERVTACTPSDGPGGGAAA"}
{"SMILES": "N=C(N)NCCCCN1CC[C@]23c4c5ccc(O)c4O[C@H]2c2[nH]c4ccccc4c2C[C@@]3(O)[C@H]1C5", "pEC50": 8.46}
{"SMILES": "N=C(N)NCCCCCCCN1CC[C@]23c4c5ccc(O)c4O[C@H]2c2nc4ccccc4cc2C[C@@]3(O)[C@H]1C5", "pEC50": 7.55}
{"SMILES": "N=C(N)NCCCCCCN1CC[C@]23c4c5ccc(O)c4O[C@H]2c2[nH]c4ccccc4c2C[C@@]3(O)[C@H]1C5", "pEC50": 7.95}
{"data": "Block 3", "SMILES": "Cn1cc(-c2cccc(CN3CCC4(CC3)COc3c4ccc4c3CN([C@H]3CCC(=O)NC3=O)C4=O)c2)cn1"}
{"test system": "monkey plasma", "setting": "60 min, mean", "remaining compound [%]": 108}
{"test system": "human plasma", "setting": "0 min", "remaining compound [%]": 100}
{"test system": "human plasma", "setting": "60 min, mean", "remaining compound [%]": 94.3}
{"test system": "monkey plasma", "setting": "30 min, mean", "remaining compound [%]": 120}
{"test system": "mouse plasma", "setting": "60 min, mean", "remaining compound [%]": 108}
{"test system": "human plasma", "setting": "120 min, mean", "remaining compound [%]": 90.6}
{"test system": "monkey plasma", "setting": "5 min, mean", "remaining compound [%]": 111}
{"test system": "mouse plasma", "setting": "30 min, mean", "remaining compound [%]": 117}
{"test system": "monkey plasma", "setting": "0 min", "remaining compound [%]": 100}
{"test system": "mouse plasma", "setting": "120 min, mean", "remaining compound [%]": 108}
{"data": "Block 4", "Compound": "CCCCC[C@@H]1CC(=O)N[C@@H](C(C)C)C(=O)N[C@H](CCCNC(=N)N)C(=O)N[C@@H](CO)C(=O)NCC(=O)N(C)[C@H](Cc2ccccc2)C(=O)N[C@@H](CC(C)C)C(=O)N[C@H](CCCNC(=N)N)C(=O)N[C@@H](CC(N)=O)C(=O)N[C@H](C(C)C)C(=O)N[C@H](Cc2c[nH]c3ccccc23)C(=O)NCCCC(=O)O1", "organism": "Staphylococcus aureus", "strain": "USA300", "tested at": "2 x MIC"}
{"setting": "240 min", "viable cells": "500 CFU/mL and 800 CFU/mL and 400 CFU/mL"}
{"setting": "0 min", "viable cells": "4.4e+08 CFU/mL and 4.9e+08 CFU/mL and 3.8e+08 CFU/mL"}
{"setting": "300 min", "viable cells": "800 CFU/mL and 600 CFU/mL"}
{"setting": "30 min", "viable cells": "1500 CFU/mL and 2000 CFU/mL and 1800 CFU/mL"}
{"note": "Repeated from above (block 3):"}
{"test system": "human plasma", "setting": "120 min, mean", "remaining compound [%]": 90.6}
{"test system": "monkey plasma", "setting": "5 min, mean", "remaining compound [%]": 111}
{"test system": "mouse plasma", "setting": "30 min, mean", "remaining compound [%]": 117}
